Assay results gathered from unrelated publications.
Numbered parts are unrelated; each lists some results of a single study.

Set 1 — method: protein binding microarray; form: double-stranded DNA, one strand shown; medium: in vitro; tested at: not given; baseline: not given; direction: higher = stronger binding
Target: Histone acetyltransferase KAT6A, winged helix 2, GST fusion (KAT6A, Homo sapiens, UniProt Q92794, residues 85-181)
Notes: 8-mer, flanks averaged, mean of 2 arrays, mostly near background
Construct (chain): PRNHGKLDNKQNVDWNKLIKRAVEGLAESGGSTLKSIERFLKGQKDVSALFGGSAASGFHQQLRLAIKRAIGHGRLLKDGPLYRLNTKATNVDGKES
Sequence	E-score
GAGCGACA	0.025
CAATCCGA	0.181
GTGATGCA	0.0908
GCTTATTA	0.00395
CTTTAAGC	0.167
AGAGCCAT	-0.114
ATTATGGA	0.0629
GCCACGTA	-0.286
CGTACAAC	-0.105
CATACTGA	-0.0617
AAACCAGT	-0.0866
ATTGCTTG	-0.0356
CAACCAGA	-0.00409
CTGTCTAC	-0.0819
ACAGTAGC	-0.0465
CCGACGGA	0.053
TCCTGCCA	-0.0124
GGATGATA	0.0209
TTGATCAA	-0.0971
CCTTTCAC	-0.0555
ATGCAGAA	0.0895
ACGGCCCG	0.23
ACCAGAAC	0.046
CGTGCGAC	0.103
ATACGACG	0.0176

Set 2 — method: RNA Bind-n-Seq; form: RNA; medium: in vitro; tested at: 100 nM; baseline: input RNA pool; direction: higher = stronger binding
Target: RING finger protein unkempt homolog, zinc fingers 1-6, SBP tag (UNK, Homo sapiens, UniProt Q9C0B0, residues 30-357)
UniProt Q9C0B0, sequence (30-357, looked up): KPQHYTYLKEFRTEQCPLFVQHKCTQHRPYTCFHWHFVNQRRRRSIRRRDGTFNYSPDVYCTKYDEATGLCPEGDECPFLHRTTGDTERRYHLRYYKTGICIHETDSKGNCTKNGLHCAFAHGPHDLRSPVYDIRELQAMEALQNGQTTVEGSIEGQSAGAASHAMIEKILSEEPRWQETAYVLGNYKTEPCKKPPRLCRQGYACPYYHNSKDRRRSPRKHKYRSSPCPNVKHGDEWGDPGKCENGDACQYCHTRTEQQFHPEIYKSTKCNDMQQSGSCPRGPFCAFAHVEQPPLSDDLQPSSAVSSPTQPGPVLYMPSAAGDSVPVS
Notes: RNA with constant flanks, vertebrate orthologous sites, ends assumed
Sequence	bound/input enrichment [ratio]
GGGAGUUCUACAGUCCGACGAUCGUUUUAAAGUCAUUUUUUCACAUUUCCUGUAAAUAAUGGAUAAUCAUUUCUUUUAUUUUUAAGUACUGUUUUAACAAUGUGGAUGACCAUAAAUGUACUUGCUGAAUUCAUUCUUUUUUACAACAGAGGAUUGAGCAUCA	0.295
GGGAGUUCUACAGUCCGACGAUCGAAAAUGGCUUCUGCUCCAUUAAAAAGUAAAAAUUGUCCUCCAAAUAUAAAACUCCUUAAUAGAUAUUUUUGAAAUUAAAAUCUUUAAAUUUUAUAAAUCAGCUGUUGCCACUACACAACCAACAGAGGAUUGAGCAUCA	2.44
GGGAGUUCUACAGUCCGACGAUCUGUGAGUAGUGGAGACUGGCCUGCAACAAGGAGCAAGUCAAGAAAUGUCCAGUAAAACUGCUGUCCUCUGCACUAUCGUUAACCUGCUGUCUCACUUUUCAUGUAGAUGUAAAAUACUGACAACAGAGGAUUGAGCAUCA	0.292
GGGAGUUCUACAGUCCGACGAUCGUGUUGGUACAGACAGCUCUGUACCAAUGCUCAUCGUCCCUCGUUCAUACCGACCAUACCUAGUUAUAGGAAUUUAAUAUUUUUUAAAGUUUUACAUUGCUGUAUAUUAAAAAAUCUGUUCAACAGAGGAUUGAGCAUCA	0.498
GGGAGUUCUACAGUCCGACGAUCACAGGGAGAAGAGAUCACAAACUCAAGAAAAACUAUUAAAGAGUUCUAAUAGUUCAAAGCUAAGAAAGAGUAGGAUAAUUUUACAAAUGAGUGGUGGAAAAGAAAAGAACAGAAAAAGGCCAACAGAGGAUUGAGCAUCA	0.865
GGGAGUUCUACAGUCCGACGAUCAGCAUCUGGAGACAUUUGGCCUUGUCUUUCAACAUAUGAUAAUAGUCCAGCAUCAUUCCAAAGCCCUUCUUCUAUUGCUAUGCAACCUAGUCCGAGUGCAUCUUGUUCAGAUGCUCACAUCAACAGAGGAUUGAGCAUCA	1.05
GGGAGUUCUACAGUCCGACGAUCCUCCCCUUAAUCCCAUCUCAUCUGUUUCAUAGUGCUGAAAUUCUGUCUUCAGCCUUAUUUUUAGCGAACUUAUUCUAAUUCUAGCGAAACUUCCAGUGUGGAUACUGUGAGCUAUGUGGACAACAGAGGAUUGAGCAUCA	2.87
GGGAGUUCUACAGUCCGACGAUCUGUCCUUUCUUACUGUCCCCAGCCGGGGCCGGGGACCGGUGUGUCACUGAGGACCUGCAUUAGAAACAUUUUUUAAAUUGUUGUACAGGAAGAGAUGUGUCUAAAACAGCAUCUCAAAGCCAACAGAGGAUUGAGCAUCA	1.23
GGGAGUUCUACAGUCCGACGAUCCUGAGGCUUUGUAUUUGGCUGCACUUGCAUAAGCUGCUACAAAUAGAAUAAAGAAUUUCAUAGCCUGUAUCUAUCAUUUAGAUGCAUGGUCAAUGGGCUUUGCACACAAUGGGUUUGGAGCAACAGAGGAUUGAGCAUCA	1.73
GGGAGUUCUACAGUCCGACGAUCUCCCCGUUCACCCUUAAGAUAGAACUUUUUAAAAUUGUGUUGCCACCACUUCUGAAAACUUAGCAAUAUUAGAAUAAGAUGUUAGUGAAGUAAAUUUUGCUCAUUAUUUUGCAAACCUAACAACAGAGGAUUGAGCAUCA	2.46
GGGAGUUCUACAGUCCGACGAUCAAAGCCAUCUUUUCCACAUUUUCUGUAAAUAAUGGAUAAUCAUUUAAAAAAUUUUAUUUUUAGUGCUGUUUUAACAAUGUAGAUAGAUCAUAAAUGUACUUGCUGAAUUCAAUCAUUUUUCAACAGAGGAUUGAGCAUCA	0.603

Set 3 — method: competition protein-binding microarray; form: double-stranded DNA, one strand shown; medium: in vitro; tested at: 2 µM; together with: Cbf1 competitor, 0.05 µM; direction: higher = stronger binding
Target: Phosphate system positive regulatory protein PHO4, full length, GST-tagged (PHO4, Saccharomyces cerevisiae, UniProt P07270, residues 1-312)
Notes: whole 60-bp probe, lowest competitor level
Residues (chain): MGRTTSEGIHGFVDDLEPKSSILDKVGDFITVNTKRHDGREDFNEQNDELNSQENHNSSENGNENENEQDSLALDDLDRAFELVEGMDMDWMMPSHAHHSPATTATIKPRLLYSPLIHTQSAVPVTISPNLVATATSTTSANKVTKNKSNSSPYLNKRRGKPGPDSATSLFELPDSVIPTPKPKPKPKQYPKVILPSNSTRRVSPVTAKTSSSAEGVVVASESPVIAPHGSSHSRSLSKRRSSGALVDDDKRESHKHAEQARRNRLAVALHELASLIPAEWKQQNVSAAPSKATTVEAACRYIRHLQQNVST
Sequence	fluorescence intensity [a.u.]
AGATCAAAGTCCCATCACGGGAAGCGGACAACAATAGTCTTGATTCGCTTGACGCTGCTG	4590
TGGATCTTCCACTGTCATGCTAATTGGTCTTAGGTTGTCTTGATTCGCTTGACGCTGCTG	4530
TCTGGGTGTAACATTCAGATGCGGGCGTCATTTATTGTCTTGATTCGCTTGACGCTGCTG	3760
CGGGGTTAAGTTTGGGCAGTGGGTGGCTTGCAGCAGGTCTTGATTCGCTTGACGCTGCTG	4660
CCGGAACTGACTTTTATCGTGATGGGAACTTTGGGTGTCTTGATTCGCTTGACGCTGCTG	3380
CTAACGAAGGTTTGACGGGTGGGTGACAAGCCAAGTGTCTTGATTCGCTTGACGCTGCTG	4050
CGGGGTTAAGTTTTTCACGTGTCATGCTCGCAGCAGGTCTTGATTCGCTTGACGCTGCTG	12500
TTGGCAACTCTCTCCGTCATGACAACTACTCCGCGGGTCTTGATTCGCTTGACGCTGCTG	3050
CTTTCCCGATCTTGTACAGTGGGTGTAGCACATTTGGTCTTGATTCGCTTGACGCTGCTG	4180
CGGGGTTAAGTTTGAAAAGTGGGTGGCTTGCAGCAGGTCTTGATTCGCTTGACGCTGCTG	4190
TTGGCGACTATTTAGCACGTGAGTATACTTGATTAAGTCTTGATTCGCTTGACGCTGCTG	15900
TAGTGATTGTTGGATCATATGACTGTGGGAAAATAAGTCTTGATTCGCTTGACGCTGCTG	3760
TTTTTGAGACGTACTGGCGTGCTAAATAGAGTGGTTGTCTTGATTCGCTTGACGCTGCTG	6950
TTTGTCCTCGCACTCCGCGTGGTGAACTTGTTCTTGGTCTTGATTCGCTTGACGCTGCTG	8740
AAAGCGGTAATTTGTGGTGTGGGTGCAGATATCTATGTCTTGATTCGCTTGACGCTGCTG	5530
CTTTCCCGATCTTTTCACGTGTGTTTAGCACATTTGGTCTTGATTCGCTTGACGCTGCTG	14100
TCTCTGTTGCAATCTCACGTGAAAAAGTGGATTCGCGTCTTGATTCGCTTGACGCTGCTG	9730
CGTCCTAGTGATTGCTCTGTGGGTGCCATGAGGAAGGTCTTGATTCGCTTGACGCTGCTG	6530
CTTCAACAACAAGTGTCTGTGACGGCTTCAAGGGTCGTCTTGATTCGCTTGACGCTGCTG	4270
TTTTTTCAGATGGAGACTGTGATGGGGTAGCGCTTGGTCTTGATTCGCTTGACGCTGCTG	3740
TTGAATGAGCAATCGCACGATGTCCCAATGGCACTCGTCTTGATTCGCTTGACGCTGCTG	9850
CAGCGGATTCCCGAGCACATGGAGTCGCTGAACGACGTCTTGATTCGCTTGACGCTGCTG	10400

Set 4 — method: EMSA with sequencing; form: double-stranded DNA, one strand shown; medium: in vitro; tested at: 10 and 20 nM; baseline: negative control set to 0; direction: higher = stronger binding
Target: Hepatocyte nuclear factor 3-alpha (Foxa1, Mus musculus, UniProt P35582, residues 1-468, full length assumed)
UniProt P35582, sequence (whole entry, looked up): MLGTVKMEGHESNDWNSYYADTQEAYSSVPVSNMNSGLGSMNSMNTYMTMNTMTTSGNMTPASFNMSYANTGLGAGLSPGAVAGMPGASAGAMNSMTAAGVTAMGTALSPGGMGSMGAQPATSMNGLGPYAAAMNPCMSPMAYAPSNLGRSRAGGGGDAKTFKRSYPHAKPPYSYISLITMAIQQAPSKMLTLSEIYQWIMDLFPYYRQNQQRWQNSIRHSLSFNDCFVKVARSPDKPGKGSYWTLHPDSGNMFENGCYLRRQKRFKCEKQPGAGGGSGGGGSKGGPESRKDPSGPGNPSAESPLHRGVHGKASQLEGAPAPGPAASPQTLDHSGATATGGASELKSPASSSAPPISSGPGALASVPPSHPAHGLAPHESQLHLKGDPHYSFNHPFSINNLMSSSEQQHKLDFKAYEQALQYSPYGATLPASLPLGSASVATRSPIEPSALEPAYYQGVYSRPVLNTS
Notes: whole designed probe, mean of two concentrations, ends assumed
Sequence	normalised bound fraction [ratio]
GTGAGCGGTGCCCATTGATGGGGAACATCTTCCCCCTCTTCCTTGCCCCACCAGCTCACCTACGGGGGTTATTTGCAGATAGGAAAATAAATAAAGCCGGCATTCGTTAACCCTCTTCACGCGCATACTGCTGTTTGCTCTGCATCTAACATGGTCCTTACGCGAGGCGTGGCTCCGGGAGAGCAAAGCACCGTGTCAGGCGCATGATCCGGGGTGGCCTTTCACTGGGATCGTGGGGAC	0.355
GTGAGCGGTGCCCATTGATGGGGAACATCTTCCCCCTCTTCCTTGCCCCACCAGCTCACCTTCCCGGGTTATTTGCAGATAGGAAAATAAATAAAGCCGGCCTTACTTGAACCTCTTCTGGCGCAAACTGCTGTTTGCTCTGGATGAATCATGGTCCTTTGGCGACGCCAGGCTCCGGGAGAGCAAAGCACCGTGTCAGGGCCATGATCCGGGGTGGCCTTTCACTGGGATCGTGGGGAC	0.343
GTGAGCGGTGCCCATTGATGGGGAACTTTTCATTTTCAGATTTGCTATACTTGAAACCACTTGTTCCACTGTAAAATGTAATCCTTTATGAATTTTATATTTATTGATTCAAAGGTTCTATGTTTACATTGCCATGCCATGTCTAACAATAAGGTCCACTTGTAAGTAGATTTATTTGTTATTGGTAACAATAATCTCACACAATTTTGATGTATTCAGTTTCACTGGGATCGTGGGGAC	0.474
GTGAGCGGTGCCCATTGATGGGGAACAAGTATCACAATGATCTTCCATTGCAGAGAAGAAGGAGGAGGGAAGAGACAACATGCATATCATGGAAGGATATGCTTGCCCAAAAACCACAGAGTAATCTAGCACTTACGTTTCATTTGTCAGAATTATGTAGCTTCGTCACTTCCAGCTGAAAGATAGCTGTGTGAAAAGGGTTGTGTTATTTTTTGCAAATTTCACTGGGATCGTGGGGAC	-0.00929
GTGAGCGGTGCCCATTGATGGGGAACGTAACTACAGTCTCAACCTGCCACATTTTATCATAGGATCAAATCCAGTAATAAAATAATGAGTCTTGGAGGGCAGGCCAGACAGCTCATCTGTGTTTACTGAAAGCATCCAGCATATCTTATGAGACACGTGGTGCCAAACAGATGGGTGGCCGCCCTCCCTCATCTGCCTGCCTGAGGCTTGCCCAACTGCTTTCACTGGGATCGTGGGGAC	0.102
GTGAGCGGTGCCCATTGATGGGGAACATGAAGGGCTGCCAGTGTAATTTGAACCTCAAATAAACAACAGATAAAACTGTAGTATAAGTATGTCCCATATATTGCACAACACGATCTTTTAGATTGCCTAATCTGGCAAAGAAAATGACTTAACACACACTAATCTGTTGACAGGTAGGTGAAATATTTGAACTTCTACGTTGCTTCTCTAATCCTGTCCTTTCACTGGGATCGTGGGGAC	0.133

For quick reference, copied from above (set 3):
Sequence	fluorescence intensity [a.u.]
TAGTGATTGTTGGATCATATGACTGTGGGAAAATAAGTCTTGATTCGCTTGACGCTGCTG	3760
TTTTTGAGACGTACTGGCGTGCTAAATAGAGTGGTTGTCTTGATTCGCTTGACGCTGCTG	6950
TTTGTCCTCGCACTCCGCGTGGTGAACTTGTTCTTGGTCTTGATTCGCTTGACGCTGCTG	8740
AAAGCGGTAATTTGTGGTGTGGGTGCAGATATCTATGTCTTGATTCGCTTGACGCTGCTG	5530
CTTTCCCGATCTTTTCACGTGTGTTTAGCACATTTGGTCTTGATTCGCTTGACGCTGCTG	14100
TCTCTGTTGCAATCTCACGTGAAAAAGTGGATTCGCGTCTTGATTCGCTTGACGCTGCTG	9730
CGTCCTAGTGATTGCTCTGTGGGTGCCATGAGGAAGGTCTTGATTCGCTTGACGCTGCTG	6530
CTTCAACAACAAGTGTCTGTGACGGCTTCAAGGGTCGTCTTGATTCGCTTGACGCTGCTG	4270
TTTTTTCAGATGGAGACTGTGATGGGGTAGCGCTTGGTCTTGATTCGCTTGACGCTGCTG	3740
